{"data": "Assay results collected from several papers", "note": "A part holds a random share of what one study measured. Positions count from the first letter of the parent shown."}
{"data": "Block 1", "target": "Ras GTPase-activating protein-binding protein 1, RRM domain (G3BP1, Homo sapiens, UniProt Q13283)", "method": "RNA Bind-n-Seq", "form": "RNA", "medium": "in vitro", "tested at": "1 µM", "notes": "whole 134-nt RNA, ends assumed", "together with": "150 mM KCl", "reference": "input library", "direction": "higher = stronger binding", "sequence of UniProt Q13283 (whole entry, looked up)": "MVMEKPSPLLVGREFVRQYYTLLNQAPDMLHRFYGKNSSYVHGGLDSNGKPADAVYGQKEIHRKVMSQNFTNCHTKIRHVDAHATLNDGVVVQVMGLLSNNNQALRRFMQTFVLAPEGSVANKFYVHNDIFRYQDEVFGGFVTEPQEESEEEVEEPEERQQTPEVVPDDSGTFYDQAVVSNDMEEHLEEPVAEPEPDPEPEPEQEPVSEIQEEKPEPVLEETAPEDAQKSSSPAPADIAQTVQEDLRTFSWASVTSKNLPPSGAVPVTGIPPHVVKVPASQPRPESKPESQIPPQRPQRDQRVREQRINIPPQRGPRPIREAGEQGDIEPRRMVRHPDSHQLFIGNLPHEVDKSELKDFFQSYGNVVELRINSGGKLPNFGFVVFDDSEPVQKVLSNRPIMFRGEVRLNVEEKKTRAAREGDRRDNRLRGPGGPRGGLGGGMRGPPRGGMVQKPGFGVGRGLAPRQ"}
{"Oligonucleotide": "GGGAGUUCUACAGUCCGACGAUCUCCUCAAGUCCUGUGCUACACAUCGUAUGUACCGAAUCGGAGGAGGGGAGGGAAAGUAUUAUGUUACGCCGUUCGGAUCUGCACUUCCAGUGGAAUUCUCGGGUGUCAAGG", "log2 enrichment": -0.206}
{"Oligonucleotide": "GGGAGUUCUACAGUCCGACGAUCGUCCUGUGCUACACAUCGUAUGUACCGAAUCAAAGUGUGUGUGUGUGUGUGUGUGAAAAAAGUAUUAUGUUACGCCGUUCGGAUCUGCACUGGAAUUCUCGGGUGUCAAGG", "log2 enrichment": 0.0307}
{"Oligonucleotide": "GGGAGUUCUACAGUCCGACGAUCUUCCCGGAGAACUCGAGUAAAUCUAGAAGUUGCCAGGUUUCAGAACUAUUUAUUCCUUUAAUGUGCAGACGAAGGGAACGUCAUCGUUUGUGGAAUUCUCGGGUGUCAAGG", "log2 enrichment": 0.00891}
{"Oligonucleotide": "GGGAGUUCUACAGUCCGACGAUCUGGGAGGUGGAUUUUGUUUAUUUUUUUAGCUCAUUUCCAGGGGUGGGAAUUUUUUUUUAAUAUGUGUCUUGAAUAAAGUUGUUUUUGAAAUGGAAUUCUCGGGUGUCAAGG", "log2 enrichment": 2.05}
{"Oligonucleotide": "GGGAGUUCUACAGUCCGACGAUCAGUCCUGUGCUACACAUCGUAUGUACCGAAUCGGAAAAAAAGGUUUUUUUGGUUUGGAAAGUAUUAUGUUACGCCGUUCGGAUCUGCACUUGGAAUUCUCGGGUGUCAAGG", "log2 enrichment": -0.575}
{"Oligonucleotide": "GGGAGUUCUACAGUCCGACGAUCUCAAGUCCUGUGCUACACAUCGUAUGUACCGAAUCGGGUGGGAAAGGGAAAGGGAAAGUAUUAUGUUACGCCGUUCGGAUCUGCACUUCCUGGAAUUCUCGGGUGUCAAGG", "log2 enrichment": 0.638}
{"Oligonucleotide": "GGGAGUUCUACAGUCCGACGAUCGCAGGAAGUAAAGACAAAUGGAAAUGCUUCGGAUAGUGGCAGGGGUGGGGGUUGCUAAGGAAAGGGUGGGAUGGGAGUGGGUAAAGAGUUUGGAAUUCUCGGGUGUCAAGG", "log2 enrichment": 1.78}
{"Oligonucleotide": "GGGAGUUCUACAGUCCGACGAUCCACAGACAACACGAACCCACACAGACACAGAGGGAAGGGGUUGGGAUGGGGACAGGGUGCACAGCAGGGCGGGGUAGGACCCCAGCCCCUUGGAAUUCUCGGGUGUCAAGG", "log2 enrichment": 0.229}
{"Oligonucleotide": "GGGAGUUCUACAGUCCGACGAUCUUCAGGAUUGUGAGGGUGAAACUCCCAUUCACAAGGCAGCUCGCUCUGGGAGCCUAGAAUGCAUCAGUGCCCUUGUGGCGAAUGGGGCUCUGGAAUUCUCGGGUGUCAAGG", "log2 enrichment": -0.348}
{"data": "Block 2", "target": "Histone acetyltransferase KAT6A, both winged helices, GST fusion (KAT6A, Homo sapiens, UniProt Q92794, residues 1-181)", "method": "protein binding microarray", "form": "double-stranded DNA, one strand shown", "medium": "in vitro", "tested at": "not given", "notes": "8-mer, flanks averaged, mean of 2 arrays, mostly near background", "reference": "not given", "direction": "higher = stronger binding", "Target sequence (chain)": "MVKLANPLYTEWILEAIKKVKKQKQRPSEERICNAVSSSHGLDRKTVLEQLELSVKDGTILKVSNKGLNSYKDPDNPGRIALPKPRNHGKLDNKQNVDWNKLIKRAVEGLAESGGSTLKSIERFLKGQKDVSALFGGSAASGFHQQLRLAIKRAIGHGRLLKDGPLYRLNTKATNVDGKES"}
{"Oligonucleotide": "CCTACAGC", "E-score": -0.0109}
{"Oligonucleotide": "ACACACAC", "E-score": -0.0504}
{"Oligonucleotide": "CCTAGACC", "E-score": -0.0749}
{"Oligonucleotide": "CCACGCCC", "E-score": 0.0212}
{"Oligonucleotide": "CCGAAAGC", "E-score": 0.0459}
{"Oligonucleotide": "ATCTCCCG", "E-score": 0.211}
{"Oligonucleotide": "GCACAATA", "E-score": 0.0174}
{"Oligonucleotide": "ATGGCATG", "E-score": -0.0379}
{"Oligonucleotide": "ATCCCCTA", "E-score": -0.258}
{"Oligonucleotide": "CCAATTAG", "E-score": -0.0769}
{"Oligonucleotide": "CAAACGAG", "E-score": -0.123}
{"Oligonucleotide": "TAACAAAA", "E-score": -0.0836}
{"Oligonucleotide": "CGCTCGGC", "E-score": 0.199}
{"Oligonucleotide": "CTATCCGC", "E-score": 0.238}
{"Oligonucleotide": "ACCTTCGA", "E-score": -0.114}
{"Oligonucleotide": "AACGAAGG", "E-score": -0.162}
{"data": "Block 3", "target": "CCNA2, cyclin fold, Cln2 fusion (human)", "method": "yeast growth competition, sequencing", "medium": "yeast", "notes": "strong parent motif", "reference": "not given", "direction": "higher = stronger binding", "starting sequence": "ORC1 docking peptide (human); PRARKRLELGNLG; partner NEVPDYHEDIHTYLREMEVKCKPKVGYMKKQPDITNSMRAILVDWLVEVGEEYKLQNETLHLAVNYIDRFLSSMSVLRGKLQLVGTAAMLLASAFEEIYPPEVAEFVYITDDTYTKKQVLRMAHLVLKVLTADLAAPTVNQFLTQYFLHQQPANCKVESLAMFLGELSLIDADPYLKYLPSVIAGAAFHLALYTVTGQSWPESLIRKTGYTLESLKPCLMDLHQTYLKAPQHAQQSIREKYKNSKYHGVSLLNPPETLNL"}
{"Change": "PRSRKRLELGNLG [A3S]", "normalised enrichment score": 2.93}
{"Change": "PRARKFLELGNLG [R6F]", "normalised enrichment score": 2.43}
{"Change": "PRARKRLELGNLY [G13Y]", "normalised enrichment score": 4.14}
{"Change": "PRARKRLELGNLF [G13F]", "normalised enrichment score": 4.26}
{"Change": "PRARKRLHLGNLG [E8H]", "normalised enrichment score": 3.23}
{"Change": "PRARKRLELGNLD [G13D]", "normalised enrichment score": 5.95}
{"Change": "NRARKRLELGNLG [P1N]", "normalised enrichment score": 4.86}
{"Change": "PRARKRLELGQLG [N11Q]", "normalised enrichment score": 4.66}
{"Change": "PRARKRLELGNVG [L12V]", "normalised enrichment score": 5.36}
{"Change": "PRARGRLELGNLG [K5G]", "normalised enrichment score": 1.21}
{"Change": "PMARKRLELGNLG [R2M]", "normalised enrichment score": 4.37}
{"Change": "PRARKRLELLNLG [G10L]", "normalised enrichment score": 2.77}
{"Change": "PRARKRLELGNYG [L12Y]", "normalised enrichment score": 5.33}
{"Change": "PRARRRLELGNLG [K5R]", "normalised enrichment score": 5.95}
{"Change": "PRARKRLELGMLG [N11M]", "normalised enrichment score": 5.39}
{"Change": "PRARPRLELGNLG [K5P]", "normalised enrichment score": 0.591}
{"Change": "PRARKRLEFGNLG [L9F]", "normalised enrichment score": 6.88}
{"Change": "PRARKRLELGNLV [G13V]", "normalised enrichment score": 4.71}
{"Change": "PRARKRLELGNEG [L12E]", "normalised enrichment score": 5.52}
{"Change": "PRARKRLEAGNLG [L9A]", "normalised enrichment score": 1.35}
{"Change": "PGARKRLELGNLG [R2G]", "normalised enrichment score": 4.52}
{"Change": "PRARKRLELGNLR [G13R]", "normalised enrichment score": 4.49}
{"Change": "PRAIKRLELGNLG [R4I]", "normalised enrichment score": 0.408}
{"Change": "PRARKRLELGNLP [G13P]", "normalised enrichment score": 5.74}
{"Change": "PRAVKRLELGNLG [R4V]", "normalised enrichment score": 1.55}
{"data": "Block 4", "target": "Centromere-binding protein 1, full length, N-terminal tag (CBF1, Saccharomyces cerevisiae, UniProt P17106, residues 1-351)", "method": "protein-binding microarray", "form": "double-stranded DNA, one strand shown", "medium": "in vitro", "tested at": "0.8 µM", "notes": "whole 60-bp probe, no competitor", "direction": "higher = stronger binding", "sequence of UniProt P17106 (whole entry, looked up)": "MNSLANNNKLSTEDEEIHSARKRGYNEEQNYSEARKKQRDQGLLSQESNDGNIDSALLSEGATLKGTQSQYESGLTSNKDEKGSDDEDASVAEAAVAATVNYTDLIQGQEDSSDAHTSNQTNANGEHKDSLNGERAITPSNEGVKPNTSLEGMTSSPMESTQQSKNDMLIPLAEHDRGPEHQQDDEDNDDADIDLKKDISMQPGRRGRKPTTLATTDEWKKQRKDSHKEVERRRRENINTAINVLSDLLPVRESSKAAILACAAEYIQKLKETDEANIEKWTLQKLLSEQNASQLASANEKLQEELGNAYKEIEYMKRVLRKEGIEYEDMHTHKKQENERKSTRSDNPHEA"}
{"Oligonucleotide": "CTATCTACCATTGGTCACGGTCTCAGTATATTTTTCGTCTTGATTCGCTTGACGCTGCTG", "fluorescence intensity": "1320 a.u."}
{"Oligonucleotide": "CTATAGGGATATCTGCACATGGGGCCTCGAGCATTCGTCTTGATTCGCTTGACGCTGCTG", "fluorescence intensity": "575 a.u."}
{"Oligonucleotide": "GAAATTTAAACTTTTTAGGTGACGTTTCTCTTCTAGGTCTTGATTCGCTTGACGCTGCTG", "fluorescence intensity": "496 a.u."}
{"Oligonucleotide": "GAATTATCATTTGTGCTCGTGAGGCTATGAAATTAGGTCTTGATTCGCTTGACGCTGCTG", "fluorescence intensity": "631 a.u."}
{"Oligonucleotide": "GAAACCAAATGCGGCCACGTTTAGGGCAGAGCATAGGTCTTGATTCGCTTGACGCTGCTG", "fluorescence intensity": "505 a.u."}
{"Oligonucleotide": "GAACAACAACTACTTATCGTGACTTGTCTAAAATAGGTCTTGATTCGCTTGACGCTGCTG", "fluorescence intensity": "617 a.u."}
{"Oligonucleotide": "CTATCAGACCCTTACATCAGCAGCAGCACGTTCTTCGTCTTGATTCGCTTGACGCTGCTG", "fluorescence intensity": "628 a.u."}
{"Oligonucleotide": "GAAGATAGCGCCCATCATATGATCATCCCATTATAGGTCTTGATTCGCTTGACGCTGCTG", "fluorescence intensity": "751 a.u."}
{"Oligonucleotide": "CTACAACACCACCACCACCAATAGTACTACCTGTTCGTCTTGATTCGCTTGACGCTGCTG", "fluorescence intensity": "534 a.u."}
{"Oligonucleotide": "GAACAATTCACTTAGTACGTGGTCTTGGAGTTATAGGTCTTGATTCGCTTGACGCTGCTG", "fluorescence intensity": "551 a.u."}
{"Oligonucleotide": "CCTAACTACTATAGTGATGAGATATAGCTTCGTACAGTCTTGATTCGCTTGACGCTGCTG", "fluorescence intensity": "532 a.u."}
{"Oligonucleotide": "CTAATCGAATGCTTGCGCATGCCAATGCACAGATTCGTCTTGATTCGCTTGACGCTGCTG", "fluorescence intensity": "503 a.u."}
{"Oligonucleotide": "CCTAACTACTATAACCACGTTACATAGCTTCGTACAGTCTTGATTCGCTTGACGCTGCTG", "fluorescence intensity": "652 a.u."}
{"Oligonucleotide": "GAATTTCAGTTTCCGCGCGTGACTTAGATTTGGTAGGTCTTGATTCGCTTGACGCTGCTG", "fluorescence intensity": "2520 a.u."}
{"Oligonucleotide": "TGTACGAAGCTATTCCACGATGATATAGTAGTTAGGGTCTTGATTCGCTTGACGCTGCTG", "fluorescence intensity": "538 a.u."}
{"Oligonucleotide": "GAATTTTAAGCTTTTCTCCTGATCGCTTTATCCTAGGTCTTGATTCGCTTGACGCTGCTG", "fluorescence intensity": "521 a.u."}
{"Oligonucleotide": "CTATTGCTTCGTCATCACCACCTTTCTCTTTTATTCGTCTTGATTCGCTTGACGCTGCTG", "fluorescence intensity": "528 a.u."}
{"Oligonucleotide": "CTAACTATACATCAACATCAGCATCAAAATTAATTCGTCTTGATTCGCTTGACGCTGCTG", "fluorescence intensity": "559 a.u."}
{"Oligonucleotide": "CTAGCAGAAAGATACATCAGAACAATAGTAACTTTCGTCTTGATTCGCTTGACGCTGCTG", "fluorescence intensity": "540 a.u."}
{"note": "For quick reference, copied from above (block 1):"}
{"Oligonucleotide": "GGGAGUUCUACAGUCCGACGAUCUUCCCGGAGAACUCGAGUAAAUCUAGAAGUUGCCAGGUUUCAGAACUAUUUAUUCCUUUAAUGUGCAGACGAAGGGAACGUCAUCGUUUGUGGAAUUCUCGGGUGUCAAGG", "log2 enrichment": 0.00891}
{"Oligonucleotide": "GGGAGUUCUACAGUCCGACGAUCUCCUCAAGUCCUGUGCUACACAUCGUAUGUACCGAAUCGGAGGAGGGGAGGGAAAGUAUUAUGUUACGCCGUUCGGAUCUGCACUUCCAGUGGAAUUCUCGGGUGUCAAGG", "log2 enrichment": -0.206}
{"Oligonucleotide": "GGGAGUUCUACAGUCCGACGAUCUCAAGUCCUGUGCUACACAUCGUAUGUACCGAAUCGGGUGGGAAAGGGAAAGGGAAAGUAUUAUGUUACGCCGUUCGGAUCUGCACUUCCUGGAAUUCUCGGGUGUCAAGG", "log2 enrichment": 0.638}
{"Oligonucleotide": "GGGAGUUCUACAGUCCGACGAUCCACAGACAACACGAACCCACACAGACACAGAGGGAAGGGGUUGGGAUGGGGACAGGGUGCACAGCAGGGCGGGGUAGGACCCCAGCCCCUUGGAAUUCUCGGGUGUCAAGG", "log2 enrichment": 0.229}
{"Oligonucleotide": "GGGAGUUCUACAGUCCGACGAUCUUCAGGAUUGUGAGGGUGAAACUCCCAUUCACAAGGCAGCUCGCUCUGGGAGCCUAGAAUGCAUCAGUGCCCUUGUGGCGAAUGGGGCUCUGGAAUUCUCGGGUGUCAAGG", "log2 enrichment": -0.348}
